Measured values gathered from unrelated publications.
Numbers after ± are the reported error.
sdiA: Regulatory protein SdiA (sdiA, Escherichia coli, UniProt P07026)
Sequence of UniProt P07026 (whole entry, looked up): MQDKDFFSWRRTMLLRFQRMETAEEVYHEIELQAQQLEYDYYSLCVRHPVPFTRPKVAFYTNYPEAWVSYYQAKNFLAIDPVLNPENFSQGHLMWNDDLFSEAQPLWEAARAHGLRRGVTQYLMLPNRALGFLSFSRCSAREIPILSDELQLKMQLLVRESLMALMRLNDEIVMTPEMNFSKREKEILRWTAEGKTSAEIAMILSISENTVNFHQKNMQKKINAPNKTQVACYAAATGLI
ADCYAP1R1: Pituitary adenylate cyclase-activating polypeptide type I receptor (ADCYAP1R1, Homo sapiens, UniProt P41586)
Sequence of UniProt P41586 (whole entry, unmodified, looked up): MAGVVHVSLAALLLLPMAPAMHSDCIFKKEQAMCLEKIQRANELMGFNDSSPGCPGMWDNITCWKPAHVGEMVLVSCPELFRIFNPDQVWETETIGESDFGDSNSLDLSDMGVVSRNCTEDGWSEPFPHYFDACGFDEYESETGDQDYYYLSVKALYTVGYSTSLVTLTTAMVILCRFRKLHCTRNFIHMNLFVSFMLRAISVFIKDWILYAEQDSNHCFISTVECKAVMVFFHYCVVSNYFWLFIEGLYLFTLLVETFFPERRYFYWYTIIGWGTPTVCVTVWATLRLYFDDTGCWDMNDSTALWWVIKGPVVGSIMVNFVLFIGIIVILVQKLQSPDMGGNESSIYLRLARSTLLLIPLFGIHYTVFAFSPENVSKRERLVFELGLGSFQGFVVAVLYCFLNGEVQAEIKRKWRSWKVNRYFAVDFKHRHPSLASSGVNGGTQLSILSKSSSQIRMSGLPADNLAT
Sequence of UniProt P33261 (whole entry, looked up): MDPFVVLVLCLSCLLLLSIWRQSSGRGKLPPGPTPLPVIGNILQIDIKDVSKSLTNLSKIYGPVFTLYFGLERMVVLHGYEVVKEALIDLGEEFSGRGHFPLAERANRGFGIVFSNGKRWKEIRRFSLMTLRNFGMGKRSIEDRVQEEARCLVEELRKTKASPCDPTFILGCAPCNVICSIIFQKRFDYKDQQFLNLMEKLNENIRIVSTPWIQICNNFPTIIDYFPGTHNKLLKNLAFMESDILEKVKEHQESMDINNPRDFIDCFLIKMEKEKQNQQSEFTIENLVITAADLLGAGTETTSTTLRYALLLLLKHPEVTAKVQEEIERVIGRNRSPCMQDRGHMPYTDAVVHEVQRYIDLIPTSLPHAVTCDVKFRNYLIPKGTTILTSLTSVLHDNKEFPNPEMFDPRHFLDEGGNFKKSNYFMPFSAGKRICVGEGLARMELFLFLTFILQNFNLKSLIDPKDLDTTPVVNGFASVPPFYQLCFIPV
Sequence of UniProt P50391 (whole entry, looked up): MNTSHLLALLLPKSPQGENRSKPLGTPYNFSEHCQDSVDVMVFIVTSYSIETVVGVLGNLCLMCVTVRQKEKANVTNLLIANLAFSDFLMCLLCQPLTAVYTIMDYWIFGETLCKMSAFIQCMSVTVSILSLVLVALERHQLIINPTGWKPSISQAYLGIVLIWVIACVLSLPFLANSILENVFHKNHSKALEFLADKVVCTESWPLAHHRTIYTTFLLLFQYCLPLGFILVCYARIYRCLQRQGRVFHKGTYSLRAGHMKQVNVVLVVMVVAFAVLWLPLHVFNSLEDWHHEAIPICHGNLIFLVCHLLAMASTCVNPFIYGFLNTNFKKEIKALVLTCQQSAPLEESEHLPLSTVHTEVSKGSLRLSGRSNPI
Sequence of UniProt P41143 (whole entry, unmodified, looked up): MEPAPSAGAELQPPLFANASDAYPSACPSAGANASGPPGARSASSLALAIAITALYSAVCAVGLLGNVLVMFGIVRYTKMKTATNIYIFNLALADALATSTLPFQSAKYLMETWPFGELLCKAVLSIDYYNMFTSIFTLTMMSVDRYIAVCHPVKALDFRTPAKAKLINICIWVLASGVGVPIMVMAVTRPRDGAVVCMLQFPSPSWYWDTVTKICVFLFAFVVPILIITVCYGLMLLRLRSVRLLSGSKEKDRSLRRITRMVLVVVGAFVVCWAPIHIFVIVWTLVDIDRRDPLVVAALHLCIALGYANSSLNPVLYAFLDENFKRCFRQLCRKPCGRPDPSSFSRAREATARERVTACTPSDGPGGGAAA
Sequence of UniProt Q8BZ39 (whole entry, looked up): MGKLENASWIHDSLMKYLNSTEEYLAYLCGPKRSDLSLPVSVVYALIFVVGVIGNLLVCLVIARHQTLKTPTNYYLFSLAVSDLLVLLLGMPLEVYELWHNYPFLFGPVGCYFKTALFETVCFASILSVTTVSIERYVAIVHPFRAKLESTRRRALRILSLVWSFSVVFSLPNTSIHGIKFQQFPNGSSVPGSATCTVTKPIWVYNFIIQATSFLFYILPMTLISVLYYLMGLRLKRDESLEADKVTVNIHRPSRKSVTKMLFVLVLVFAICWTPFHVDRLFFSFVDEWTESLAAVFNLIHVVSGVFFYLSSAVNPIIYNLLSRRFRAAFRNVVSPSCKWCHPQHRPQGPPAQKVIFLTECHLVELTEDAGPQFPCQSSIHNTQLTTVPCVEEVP

SMILES	target	assay	conditions	quantity	result
CSCC[C@H]1NC(=O)[C@H](Cc2ccccc2)NC(=O)[C@@H](NC(=O)[C@H](C)N)CSC(=O)[C@H](C(C)C)NC(=O)[C@H](Cc2ccccc2)NC1=O	Histidine kinase AgrC (Listeria monocytogenes, UniProt A8E0G3)			EC50	10.2 nM
COc1ccc(CC(=O)N[C@H]2CCOC2=O)cc1	sdiA			EC50	5 nM
Cc1cc(O)cc(C)c1C[C@H](N)C(=O)N[C@H](CCCNC(=N)N)C(=O)N[C@@H](Cc1ccccc1)C(=O)N(C)CC(=O)N(C)Cc1cc(C(F)(F)F)cc(C(F)(F)F)c1	Delta-type opioid receptor (OPRD1, Homo sapiens, UniProt P41143, K214A)	agonist		EC50	0.35 ± 0.15 nM
CCCCCCCCCCCCCCCCCC(=O)NC[C@H]1CC[C@H](C(=O)N[C@@H](CCC(=O)NCCCOCCOCCOCCCNC(=O)COCC(=O)N[C@@H](Cc2ccc(O)cc2)C(=O)NC(C)(Cc2ccccc2)C(=O)N[C@@H](CC(C)C)C(=O)N[C@@H](CCCC)C(=O)N[C@@H](CCCNC(=N)N)C(=O)N2CCC[C@H]2C(=O)N[C@@H](CCCNC(=N)NC)C(=O)N[C@@H](CC(N)=O)C(N)=O)C(=O)O)CC1 (stereo partly shown)	Neuromedin-U receptor 2 (Mus musculus, UniProt Q8BZ39)	Gq signalling, agonist, IP-1 accumulation	average of runs	EC50	0.93 nM
CSCC[C@H](NC(=O)[C@H](CCC(N)=O)NC(=O)[C@H](CCCCN)NC(=O)[C@H](CCCNC(=N)N)NC(=O)[C@H](Cc1ccc(O)cc1)NC(=O)[C@H](CCCNC(=N)N)NC(=O)[C@H](CO)NC(=O)[C@H](Cc1ccc(O)cc1)NC(=O)[C@H](CO)NC(=O)[C@H](CC(=O)O)NC(=O)[C@@H](NC(=O)[C@@H](N)Cc1ccccc1)[C@@H](C)O)C(=O)N[C@@H](C)C(=O)N[C@H](C(=O)N[C@@H](CCCCN)C(=O)N[C@@H](CCCCn1cc(C[C@H](NC(=O)CNC(=O)[C@H](CO)NC(=O)[C@H](CCCNC(=N)N)NC(=O)[C@H](CO)NC(=O)[C@H](CC(C)C)NC(=O)[C@H](CC(C)C)NC(=O)CNC(=O)[C@H](C)NC(=O)[C@H](CC(C)C)NC(=O)[C@H](CCCNC(=N)N)NC(=O)[C@H](Cc2c[nH]cn2)NC(=O)[C@@H](NC(=O)[C@@H](N)C(C)C)[C@@H](C)O)C(=O)N[C@H](C(=O)N[C@H](C(=O)N[C@@H](CCCCN)C(=O)N[C@@H](CC(N)=O)C(=O)N[C@@H](CC(N)=O)C(=O)N[C@@H](Cc2ccccc2)C(=O)N[C@H](C(=O)N2CCC[C@H]2C(=O)N[C@H](C(=O)N[C@@H](CC(N)=O)C(=O)N[C@H](C(=O)NCC(=O)N[C@@H](CO)C(=O)N[C@@H](CCCCN)C(=O)N[C@@H](C)C(=O)N[C@@H](Cc2ccccc2)C(N)=O)C(C)C)[C@@H](C)O)C(C)C)C(C)C)C(C)C)nn1)C(=O)N[C@@H](Cc1ccc(O)cc1)C(=O)N[C@@H](CC(C)C)C(=O)N[C@@H](C)C(=O)N[C@@H](C)C(=O)N[C@H](C(=O)N[C@@H](CC(C)C)C(=O)NCC(=O)N[C@@H](CCCCN)C(=O)N[C@@H](CCCNC(=N)N)C(=O)N[C@@H](Cc1ccc(O)cc1)C(=O)N[C@@H](CCCCN)C(=O)N[C@@H](CCC(N)=O)C(=O)N[C@@H](CCCNC(=N)N)C(=O)N[C@H](C(=O)N[C@@H](CCCCN)C(=O)N[C@@H](CC(N)=O)C(=O)N[C@@H](CCCCN)C(N)=O)C(C)C)C(C)C)C(C)C	ADCYAP1R1	cAMP accumulation, antagonist	with: PACAP-27	Kb	138 nM
Cc1ccc(N2CC3CC(C2)N3)cc1C(=O)NC1(c2ccc3c4c(cccc24)C(=O)N3C)CC1	Cytochrome P450 2C19 (CYP2C19, Homo sapiens, UniProt P33261)	enzyme activity, inhibitor		IC50	7950 nM
CSCC[C@H](NC(=O)[C@H](CCC(N)=O)NC(=O)[C@H](CCCCN)NC(=O)[C@H](CCCNC(=N)N)NC(=O)[C@H](Cc1ccc(O)cc1)NC(=O)[C@H](CCCNC(=N)N)NC(=O)[C@H](CO)NC(=O)[C@H](Cc1ccc(O)cc1)NC(=O)[C@H](CO)NC(=O)[C@H](CC(=O)O)NC(=O)[C@@H](NC(=O)[C@@H](N)Cc1ccccc1)[C@@H](C)O)C(=O)N[C@@H](C)C(=O)N[C@H](C(=O)N[C@@H](CCCCN)C(=O)N[C@@H](CCCCN)C(=O)N[C@@H](Cc1ccc(O)cc1)C(=O)N[C@@H](CC(C)C)C(=O)N[C@@H](C)C(=O)N[C@@H](C)C(=O)N[C@H](C(=O)N[C@@H](CC(C)C)C(=O)NCC(=O)N[C@@H](CCCCN)C(=O)N[C@@H](CCCNC(=N)N)C(=O)N[C@@H](Cc1ccc(O)cc1)C(=O)N[C@@H](CCCCN)C(=O)N[C@@H](CCC(N)=O)C(=O)N[C@@H](CCCNC(=N)N)C(=O)N[C@H](C(=O)N[C@@H](CCCCN)C(=O)N[C@@H](CC(N)=O)C(=O)N[C@@H](CCCCn1cc(C[C@H](NC(=O)CNC(=O)[C@H](CO)NC(=O)[C@H](CCCNC(=N)N)NC(=O)[C@H](CO)NC(=O)[C@H](CC(C)C)NC(=O)[C@H](CC(C)C)NC(=O)CNC(=O)[C@H](C)NC(=O)[C@H](CC(C)C)NC(=O)[C@H](CCCNC(=N)N)NC(=O)[C@H](Cc2c[nH]cn2)NC(=O)[C@@H](NC(=O)[C@@H](N)C(C)C)[C@@H](C)O)C(=O)N[C@H](C(=O)N[C@H](C(=O)N[C@@H](CCCCN)C(=O)N[C@@H](CC(N)=O)C(=O)N[C@@H](CC(N)=O)C(=O)N[C@@H](Cc2ccccc2)C(=O)N[C@H](C(=O)N2CCC[C@H]2C(=O)N[C@H](C(=O)N[C@@H](CC(N)=O)C(=O)N[C@H](C(=O)NCC(=O)N[C@@H](CO)C(=O)N[C@@H](CCCCN)C(=O)N[C@@H](C)C(=O)N[C@@H](Cc2ccccc2)C(N)=O)C(C)C)[C@@H](C)O)C(C)C)C(C)C)C(C)C)nn1)C(N)=O)C(C)C)C(C)C)C(C)C	Pituitary adenylate cyclase-activating polypeptide type I receptor (ADCYAP1R1, Homo sapiens, UniProt P41586, del89-109)	cAMP accumulation, antagonist	with: PACAP-27	Kb	331 nM
CC(=O)N[C@@H](CCCNC(=N)N)C(=O)N[C@@H](Cc1ccc(O)cc1)C(=O)N[C@H]1CCCNC(=N)NC(=O)NCCCCNC(=O)[C@H](Cc2ccc(O)cc2)NC(=O)[C@H](CCCNC(=N)N)NC(=O)[C@H](CC(C)C)NC1=O	Neuropeptide Y receptor type 4 (NPY4R, Homo sapiens, UniProt P50391)	calcium signal, antagonist		Kb	1100 nM
O=C(Cc1cccc(I)c1)N[C@H]1CCOC1=O	sdiA			EC50	1.86 nM
CSCC[C@H](NC(=O)[C@H](CCC(N)=O)NC(=O)[C@H](CCCCN)NC(=O)[C@H](CCCNC(=N)N)NC(=O)[C@H](Cc1ccc(O)cc1)NC(=O)[C@H](CCCNC(=N)N)NC(=O)[C@H](CO)NC(=O)[C@H](Cc1ccc(O)cc1)NC(=O)[C@H](CO)NC(=O)[C@H](CC(=O)O)NC(=O)[C@@H](NC(=O)[C@@H](N)Cc1ccccc1)[C@@H](C)O)C(=O)N[C@@H](C)C(=O)N[C@H](C(=O)N[C@@H](CCCCN)C(=O)N[C@@H](CCCCN)C(=O)N[C@@H](Cc1ccc(O)cc1)C(=O)N[C@@H](CC(C)C)C(=O)N[C@@H](C)C(=O)N[C@@H](C)C(=O)N[C@H](C(=O)N[C@@H](CC(C)C)C(=O)NCC(=O)N[C@@H](CCCCN)C(=O)N[C@@H](CCCNC(=N)N)C(=O)N[C@@H](Cc1ccc(O)cc1)C(=O)N[C@@H](CCCCN)C(=O)N[C@@H](CCC(N)=O)C(=O)N[C@@H](CCCCn1cc(C[C@H](NC(=O)CNC(=O)[C@H](CO)NC(=O)[C@H](CCCNC(=N)N)NC(=O)[C@H](CO)NC(=O)[C@H](CC(C)C)NC(=O)[C@H](CC(C)C)NC(=O)CNC(=O)[C@H](C)NC(=O)[C@H](CC(C)C)NC(=O)[C@H](CCCNC(=N)N)NC(=O)[C@H](Cc2c[nH]cn2)NC(=O)[C@@H](NC(=O)[C@@H](N)C(C)C)[C@@H](C)O)C(=O)N[C@H](C(=O)N[C@H](C(=O)N[C@@H](CCCCN)C(=O)N[C@@H](CC(N)=O)C(=O)N[C@@H](CC(N)=O)C(=O)N[C@@H](Cc2ccccc2)C(=O)N[C@H](C(=O)N2CCC[C@H]2C(=O)N[C@H](C(=O)N[C@@H](CC(N)=O)C(=O)N[C@H](C(=O)NCC(=O)N[C@@H](CO)C(=O)N[C@@H](CCCCN)C(=O)N[C@@H](C)C(=O)N[C@@H](Cc2ccccc2)C(N)=O)C(C)C)[C@@H](C)O)C(C)C)C(C)C)C(C)C)nn1)C(=O)N[C@H](C(=O)N[C@@H](CCCCN)C(=O)N[C@@H](CC(N)=O)C(=O)N[C@@H](CCCCN)C(N)=O)C(C)C)C(C)C)C(C)C	ADCYAP1R1	cAMP accumulation, antagonist	with: PACAP-27	Kb	389 nM

Excerpt of the above:
SMILES	target	assay	conditions	quantity	result
CC(=O)N[C@@H](CCCNC(=N)N)C(=O)N[C@@H](Cc1ccc(O)cc1)C(=O)N[C@H]1CCCNC(=N)NC(=O)NCCCCNC(=O)[C@H](Cc2ccc(O)cc2)NC(=O)[C@H](CCCNC(=N)N)NC(=O)[C@H](CC(C)C)NC1=O	Neuropeptide Y receptor type 4 (NPY4R, Homo sapiens, UniProt P50391)	calcium signal, antagonist		Kb	1100 nM
